Published values of several laboratories.
Spike glycoprotein: Spike glycoprotein (Severe acute respiratory syndrome coronavirus 2, UniProt P0DTC2)

| Structure (SMILES) | tested on | assay | test system | conditions | quantity | value |
| --- | --- | --- | --- | --- | --- | --- |
| O=C(NCC1(c2cccc(F)c2)CCOCC1)c1cnn[nH]1 | Lassa mammarenavirus | viral replication | Huh-7 | 10 µM, 72 h | remaining activity | 41% |
| COc1cccc(-c2ccccc2NC(=O)C2CCN(Cc3ccccc3F)CC2)c1 | SARS-CoV-2 | cytopathic effect | USA_WA1/2020 | round 1, 5-point | maximum response | 88.3% |
| O=c1cc(-c2ccccc2)oc2c(O)c(O)ccc12 | Spike glycoprotein | binding, biolayer interferometry | – | – | Kd | 39.7 µM |
| CSCC(CC(=O)c1ccc(C)cc1)C(=O)O (centres unmarked) | Replicase polyprotein 1ab, main protease (rep, Severe acute respiratory syndrome coronavirus 2, UniProt P0DTD1) | viral replication, mKate2 reporter | SARS-CoV-2 | 20 µM | inhibition | 0.104% |
| Cc1cc(C)cc(-c2ccc(CN3CCCC3C(=O)NCc3cccc(F)c3)cc2)c1 (centres unmarked) | SARS-CoV-2 | cytopathic effect, cell-based CPE | USA_WA1/2020 | round 1, 5-point dilution | AC50 | 12.6 µM |
| CNC(=O)[C@@H](NC(=O)[C@H](CC(C)C)[C@H](O)C(=O)NO)C(C)(C)C | Daboia russelii | – | mouse | intravenous, 120 µg/mouse, 24 h, drug mixture, with: venom 2.5 x LD50 preincubated | survival | 60% |
| Cn1cc(CN2CCCC(COc3ccccc3C(=O)N3CCCCC3)C2)c2ccccc21 (centres unmarked) | SARS-CoV-2 | cytopathic effect | USA_WA1/2020 | round 1, 5-point | efficacy | 92.6% |
| CCc1c(C(=O)C(N)=O)c2c(OCC(=O)O)cccc2n1Cc1ccccc1 | Daboia russelii | – | mouse | intravenous, 120 µg/mouse, 24 h, drug mixture, with: RJ venom 2.5 x LD50 preincubated | survival | 100% |
| Cc1nc(C)c(CNC(=O)c2ccc(NC(=O)c3ccoc3C)cc2)s1 | Lassa mammarenavirus | viral replication | Huh-7 | 10 µM, 72 h | remaining activity | 40% |
| Nc1ncnc2c([C@@H]3N[C@H](CO)[C@@H](O)[C@H]3O)c[nH]c12 | Yellow fever virus | viral replication | Vero 76, 17D | 3 µM | inhibition | 14.8% |
| CC1=C(/C=C/C(C)=C/C=C/C(C)=C/C(=O)Nc2ccc(O)cc2)C(C)(C)CCC1 | SARS-CoV-2 | viral replication, high-content imaging screen | – | cell-based | EC50 | 2950 nM |
| Cn1cnc(Cn2c(=O)[nH]/c(=N\c3cc4cn(C)nc4cc3Cl)n(Cc3cc(F)c(F)cc3F)c2=O)n1 | – | – | human, severe renal impairment | oral, 375 mg, treatment-related dry mouth, Severe severity | patients with adverse event | 0% |
| CCCN1CCN(CCCNC(=O)c2cc3c(Cl)nc4ccccc4c3s2)CC1 | SARS-CoV-2 | cytopathic effect, cell-based CPE | USA_WA1/2020 | round 2, 5-point dilution | AC50 | 3.98 µM |
| Cc1nc[nH]c1CN1CCc2cc3ccc2C1c1cccc(c1)OCCCNC(=O)c1cc(ccc1O)O3 (centres unmarked) | Lassa mammarenavirus | viral replication | Huh-7 | 10 µM, 72 h | remaining activity | 51% |
| CC[C@H](C)[C@H](NC(=O)[C@H](CC(C)C)NC(=O)[C@H](Cc1c[nH]c2ccccc12)NC(=O)[C@H](CCC(N)=O)NC(=O)[C@@H](NC(=O)[C@H](Cc1ccccc1)NC(=O)[C@H](C)NC(=O)[C@H](CCCCNC(=O)COCCOCCNC(=O)COCCOCCNC(=O)CC[C@H](NC(=O)CCCCCCCCCCCCCCCCCCC(=O)O)C(=O)O)NC(=O)[C@H](CCC(N)=O)NC(=O)[C@H](C)NC(=O)[C@@H](NC(=O)[C@H](CCCCN)NC(=O)[C@H](CC(=O)O)NC(=O)[C@H](CC(C)C)NC(=O)C(C)(C)NC(=O)[C@@H](NC(=O)[C@H](CO)NC(=O)[C@H](Cc1ccc(O)cc1)NC(=O)[C@H](CC(=O)O)NC(=O)[C@H](CO)NC(=O)[C@@H](NC(=O)[C@H](Cc1ccccc1)NC(=O)[C@@H](NC(=O)CNC(=O)[C@H](CCC(=O)O)NC(=O)C(C)(C)NC(=O)[C@@H](N)Cc1ccc(O)cc1)[C@@H](C)O)[C@@H](C)O)[C@@H](C)CC)[C@@H](C)CC)C(C)C)C(=O)N[C@@H](C)C(=O)NCC(=O)NCC(=O)N1CCC[C@H]1C(=O)N[C@@H](CO)C(=O)N[C@@H](CO)C(=O)NCC(=O)N[C@@H](C)C(=O)N1CCC[C@H]1C(=O)N1CCC[C@H]1C(=O)N1CCC[C@H]1C(=O)N[C@@H](CO)C(N)=O | – | measured: anti-drug antibodies | patients with type 2 diabetes | 5/5/10/10 mg escalating, titer increase ≥4-fold | subjects with treatment-boosted ADA | 8.3% |
| CCc1ccc(CN(C)Cc2c[nH]nc2-c2ccc(OC)cc2OC)cc1 | Lassa mammarenavirus | viral replication | Huh-7 | 10 µM, 72 h | remaining activity | 53% |
| CC1=C(/C=C/C(C)=C/C=C/C(C)=C/C=C/C=C(C)/C=C/C=C(C)/C=C/C2=C(C)CCCC2(C)C)C(C)(C)CCC1 | Spike glycoprotein | binding, biolayer interferometry | – | – | Kd | 110 µM |

Repeated from above:
| Structure (SMILES) | tested on | assay | test system | conditions | quantity | value |
| --- | --- | --- | --- | --- | --- | --- |
| CCCN1CCN(CCCNC(=O)c2cc3c(Cl)nc4ccccc4c3s2)CC1 | SARS-CoV-2 | cytopathic effect, cell-based CPE | USA_WA1/2020 | round 2, 5-point dilution | AC50 | 3.98 µM |
| Cc1nc[nH]c1CN1CCc2cc3ccc2C1c1cccc(c1)OCCCNC(=O)c1cc(ccc1O)O3 (centres unmarked) | Lassa mammarenavirus | viral replication | Huh-7 | 10 µM, 72 h | remaining activity | 51% |
